Published values collected from several papers.
Each numbered part is a random draw from the data of one study; scales do not carry over between parts. Substitutions count along the parent as printed.
Chain of UniProt P18089 (whole entry, looked up): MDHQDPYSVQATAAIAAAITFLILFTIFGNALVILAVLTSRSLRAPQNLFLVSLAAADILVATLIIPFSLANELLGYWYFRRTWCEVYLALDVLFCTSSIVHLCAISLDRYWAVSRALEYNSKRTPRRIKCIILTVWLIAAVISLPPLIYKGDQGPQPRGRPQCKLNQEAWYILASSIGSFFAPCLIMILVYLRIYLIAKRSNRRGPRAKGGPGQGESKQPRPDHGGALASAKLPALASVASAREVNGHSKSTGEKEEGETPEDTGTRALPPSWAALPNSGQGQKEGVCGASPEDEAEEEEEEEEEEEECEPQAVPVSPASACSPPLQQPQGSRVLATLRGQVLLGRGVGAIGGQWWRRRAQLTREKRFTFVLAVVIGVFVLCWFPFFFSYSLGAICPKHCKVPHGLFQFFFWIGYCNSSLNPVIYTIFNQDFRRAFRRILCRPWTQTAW

Series 1 — target: tungstate, free oxyanion; technique: microfluidic competitive inhibition; matrix: in vitro, cell-free expressed; concentration: not given; direction: lower = stronger binding
Setting: derived from inhibition constants, unchanged parent 2230 nM
Starting sequence: PafA, mature enzyme, eGFP fusion (Elizabethkingia meningoseptica, UniProt Q9KJX5); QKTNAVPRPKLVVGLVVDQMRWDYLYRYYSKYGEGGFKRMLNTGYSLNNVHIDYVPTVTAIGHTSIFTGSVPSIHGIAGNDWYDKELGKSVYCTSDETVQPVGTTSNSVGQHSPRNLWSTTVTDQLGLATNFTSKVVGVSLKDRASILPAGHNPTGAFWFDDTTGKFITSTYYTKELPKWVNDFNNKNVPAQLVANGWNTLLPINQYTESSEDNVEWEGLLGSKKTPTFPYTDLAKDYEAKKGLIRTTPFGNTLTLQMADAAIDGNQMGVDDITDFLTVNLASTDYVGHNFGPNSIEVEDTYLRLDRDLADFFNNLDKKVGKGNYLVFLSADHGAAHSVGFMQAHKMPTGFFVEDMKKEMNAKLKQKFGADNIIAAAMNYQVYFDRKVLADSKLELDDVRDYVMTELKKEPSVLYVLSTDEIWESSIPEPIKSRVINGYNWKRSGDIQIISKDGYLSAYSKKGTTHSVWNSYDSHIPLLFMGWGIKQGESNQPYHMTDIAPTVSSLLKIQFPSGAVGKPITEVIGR
| Change | oxyanion analog dissociation constant |
| --- | --- |
| D275G | 2.06 µM |
| K2V | 2.73 µM |
| N107V | 2.24 µM |
| L117V | 1.97 µM |
| F250V | 1.83 µM |
| V388A | 1.51 µM |
| T3V | 2.4 µM |
| R443G | 2.89 µM |

Series 2 — target: CCND2, cyclin fold, Cln2 fusion (human); technique: yeast growth competition, sequencing; matrix: yeast; setting: weak parent motif; relative to: not given; direction: higher = stronger binding
Starting sequence: viral docking peptide; PTARRRLLHDLDT; partner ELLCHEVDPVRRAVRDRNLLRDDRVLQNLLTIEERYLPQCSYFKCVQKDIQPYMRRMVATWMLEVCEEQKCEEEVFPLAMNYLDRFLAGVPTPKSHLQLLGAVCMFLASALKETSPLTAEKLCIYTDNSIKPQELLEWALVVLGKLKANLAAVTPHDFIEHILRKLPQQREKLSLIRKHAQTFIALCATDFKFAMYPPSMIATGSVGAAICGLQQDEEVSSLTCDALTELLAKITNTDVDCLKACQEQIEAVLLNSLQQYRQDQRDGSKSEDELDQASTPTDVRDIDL
| Change | normalised enrichment score |
| --- | --- |
| PTARRALLHDLDT [R6A] | 0.444 |
| PTARRRLLFDLDT [H9F] | 1.74 |
| ATARRRLLHDLDT [P1A] | 0.264 |
| PTARRRLLHALDT [D10A] | -0.174 |
| PTARAAAAHDLDT [R5A R6A L7A L8A] | 0.059 |

Series 3 — observed: binding; technique: phage display NGS; molecule type: peptide; relative to: input library
Target: UDP-N-acetylglucosamine--peptide N-acetylglucosaminyltransferase 110 kDa subunit (OGT, Homo sapiens, UniProt O15294)
Residues (O15294 1-1046): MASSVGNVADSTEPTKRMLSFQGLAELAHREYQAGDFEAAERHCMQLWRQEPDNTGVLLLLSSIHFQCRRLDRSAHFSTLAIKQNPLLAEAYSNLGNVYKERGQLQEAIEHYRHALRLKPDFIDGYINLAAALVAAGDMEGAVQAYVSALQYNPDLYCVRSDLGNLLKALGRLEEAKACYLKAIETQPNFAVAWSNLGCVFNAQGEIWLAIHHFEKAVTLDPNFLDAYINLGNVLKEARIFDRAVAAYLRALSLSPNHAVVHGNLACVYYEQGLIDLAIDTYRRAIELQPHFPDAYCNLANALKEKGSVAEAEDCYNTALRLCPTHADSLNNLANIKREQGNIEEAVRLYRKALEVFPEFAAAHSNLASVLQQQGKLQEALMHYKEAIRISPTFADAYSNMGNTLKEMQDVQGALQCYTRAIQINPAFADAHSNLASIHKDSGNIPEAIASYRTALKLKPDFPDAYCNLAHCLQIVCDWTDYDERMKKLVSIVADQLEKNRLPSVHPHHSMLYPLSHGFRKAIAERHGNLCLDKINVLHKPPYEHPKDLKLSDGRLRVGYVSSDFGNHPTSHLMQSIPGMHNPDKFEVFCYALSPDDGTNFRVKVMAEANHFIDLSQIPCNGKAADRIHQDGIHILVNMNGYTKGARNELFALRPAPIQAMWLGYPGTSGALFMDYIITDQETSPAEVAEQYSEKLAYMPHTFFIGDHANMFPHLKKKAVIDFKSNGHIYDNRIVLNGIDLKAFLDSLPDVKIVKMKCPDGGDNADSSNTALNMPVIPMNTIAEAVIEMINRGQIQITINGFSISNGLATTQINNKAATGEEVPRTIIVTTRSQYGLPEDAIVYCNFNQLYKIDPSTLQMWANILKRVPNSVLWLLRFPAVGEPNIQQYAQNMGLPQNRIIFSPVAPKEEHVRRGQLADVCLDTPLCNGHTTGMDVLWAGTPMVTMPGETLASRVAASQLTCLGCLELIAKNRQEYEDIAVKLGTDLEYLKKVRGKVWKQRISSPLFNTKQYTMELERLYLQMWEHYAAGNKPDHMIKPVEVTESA
| Sequence | minimum log2 enrichment ratio |
| --- | --- |
| RNLHWDHHGPEHQHF | 2.99 |
| NNNIYWPKYQITNTL | 2.85 |
| DHARHPHEGTGTSHH | 2.73 |
| FIPYSPFYQIESSRY | 0.966 |
| MWQHGPMGMTSHYP | 1.62 |
| QPTKHFRSHHTYTAN | 2.91 |
| SINWFLPQYQIIWSQ | 4.74 |
| TGMHDAHPHWWHMTV | 3.29 |

Mixed results
| SMILES | target | observed | technique | concentration | endpoint | value |
| --- | --- | --- | --- | --- | --- | --- |
| Cn1cncc1[C@](O)(COc1ccc(C#N)cc1-c1ccc(OC(F)(F)F)cc1)c1ccc(C#N)cc1 | Alpha-2B adrenergic receptor (ADRA2B, Homo sapiens, UniProt P18089) | binding | radioligand binding | 10 µM | inhibition | 8.46% |

Some of these lines once more (series 3):
| Sequence | minimum log2 enrichment ratio |
| --- | --- |
| QPTKHFRSHHTYTAN | 2.91 |
| NNNIYWPKYQITNTL | 2.85 |
| DHARHPHEGTGTSHH | 2.73 |
